# Assay results collected from several papers.
# ± marks the error that the study gave.
# TTR: Transthyretin (TTR, Homo sapiens, UniProt P02766)
# Sequence of UniProt Q9R1M7 (whole entry, unmodified, looked up): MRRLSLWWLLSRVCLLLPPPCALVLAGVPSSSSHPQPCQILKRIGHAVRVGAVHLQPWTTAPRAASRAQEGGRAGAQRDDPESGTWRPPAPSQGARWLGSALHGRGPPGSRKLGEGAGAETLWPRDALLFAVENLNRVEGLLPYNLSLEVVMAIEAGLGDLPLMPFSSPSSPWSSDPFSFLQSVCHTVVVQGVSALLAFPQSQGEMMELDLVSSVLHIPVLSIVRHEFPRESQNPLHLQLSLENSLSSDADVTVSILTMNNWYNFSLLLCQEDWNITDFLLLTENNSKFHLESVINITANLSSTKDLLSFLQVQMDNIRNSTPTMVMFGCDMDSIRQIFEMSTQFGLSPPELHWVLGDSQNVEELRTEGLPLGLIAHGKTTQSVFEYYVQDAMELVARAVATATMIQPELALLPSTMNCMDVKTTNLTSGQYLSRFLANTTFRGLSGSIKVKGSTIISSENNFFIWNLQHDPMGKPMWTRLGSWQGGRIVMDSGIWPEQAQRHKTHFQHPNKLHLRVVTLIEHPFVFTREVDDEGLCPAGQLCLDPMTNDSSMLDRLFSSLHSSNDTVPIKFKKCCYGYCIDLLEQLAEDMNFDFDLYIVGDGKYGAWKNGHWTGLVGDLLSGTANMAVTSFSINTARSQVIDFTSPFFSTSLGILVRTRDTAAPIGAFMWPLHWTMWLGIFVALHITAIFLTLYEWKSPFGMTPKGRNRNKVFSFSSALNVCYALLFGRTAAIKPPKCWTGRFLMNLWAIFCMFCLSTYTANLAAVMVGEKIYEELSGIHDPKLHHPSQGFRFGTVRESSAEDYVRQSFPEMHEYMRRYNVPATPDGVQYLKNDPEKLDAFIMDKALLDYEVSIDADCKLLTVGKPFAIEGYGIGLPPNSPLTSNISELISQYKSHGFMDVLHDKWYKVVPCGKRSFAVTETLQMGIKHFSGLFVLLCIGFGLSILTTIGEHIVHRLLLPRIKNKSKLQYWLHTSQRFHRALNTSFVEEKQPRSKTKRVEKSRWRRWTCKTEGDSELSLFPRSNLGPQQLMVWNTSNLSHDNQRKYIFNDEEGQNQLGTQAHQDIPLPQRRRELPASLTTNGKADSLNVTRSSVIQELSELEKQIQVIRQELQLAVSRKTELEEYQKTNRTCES
# Sequence of UniProt Q9H3R0 (whole entry, looked up): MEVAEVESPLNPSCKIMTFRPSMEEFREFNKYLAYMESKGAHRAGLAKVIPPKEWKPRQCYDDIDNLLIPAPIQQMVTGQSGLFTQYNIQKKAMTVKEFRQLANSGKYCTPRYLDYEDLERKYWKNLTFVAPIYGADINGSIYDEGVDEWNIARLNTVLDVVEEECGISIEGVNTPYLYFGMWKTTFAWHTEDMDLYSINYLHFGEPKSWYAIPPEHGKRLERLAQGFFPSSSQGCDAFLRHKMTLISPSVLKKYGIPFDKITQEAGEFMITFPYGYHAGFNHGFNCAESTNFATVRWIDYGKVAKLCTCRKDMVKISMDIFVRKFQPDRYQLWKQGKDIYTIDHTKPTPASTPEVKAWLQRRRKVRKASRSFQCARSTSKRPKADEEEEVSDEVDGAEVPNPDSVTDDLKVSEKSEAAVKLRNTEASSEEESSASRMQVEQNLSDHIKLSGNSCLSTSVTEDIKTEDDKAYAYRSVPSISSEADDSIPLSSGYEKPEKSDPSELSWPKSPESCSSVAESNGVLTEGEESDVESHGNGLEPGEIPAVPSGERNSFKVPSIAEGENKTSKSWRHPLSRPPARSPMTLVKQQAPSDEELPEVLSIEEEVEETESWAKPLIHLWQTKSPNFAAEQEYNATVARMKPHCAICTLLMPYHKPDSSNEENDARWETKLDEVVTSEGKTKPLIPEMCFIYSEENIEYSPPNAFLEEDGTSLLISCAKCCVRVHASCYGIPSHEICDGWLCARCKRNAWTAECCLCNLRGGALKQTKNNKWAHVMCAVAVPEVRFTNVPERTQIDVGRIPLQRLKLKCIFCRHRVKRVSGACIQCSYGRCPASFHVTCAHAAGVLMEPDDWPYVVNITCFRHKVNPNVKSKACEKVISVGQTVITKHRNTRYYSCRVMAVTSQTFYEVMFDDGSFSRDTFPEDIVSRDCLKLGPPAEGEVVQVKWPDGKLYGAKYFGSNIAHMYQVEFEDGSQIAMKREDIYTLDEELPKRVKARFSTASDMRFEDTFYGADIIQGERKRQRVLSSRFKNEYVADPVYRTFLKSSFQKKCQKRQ
Compound,tested on,assay,system,conditions,quantity,result
CC[C@H](C)[C@H](NC(=O)[C@H](CCCCN)NC(=O)[C@H](CCC(N)=O)NC(=O)[C@H](Cc1ccccc1)NC(=O)[C@@H](NC(=O)[C@H](CCCCN)NC(=O)[C@H](CCCCN)NC(=O)[C@H](CC(C)C)NC(=O)[C@H](C)NC(=O)[C@H](CC(N)=O)NC(=O)[C@@H](N)CC(C)C)C(C)C)C(=O)N[C@@H](Cc1c[nH]cn1)C(N)=O,Staphylococcus aureus,"membrane integrity, flow cytometry",USA300,"1 x MIC, 1 h",PI-positive cells,67%
C[C@@H](NCc1cc(Br)cc2[nH]c(=O)c(=O)[nH]c12)P(=O)(O)O,"Glutamate receptor ionotropic, NMDA 1/3A (Grin1/Grin3a, Rattus norvegicus, UniProt P35439+Q9R1M7, F484A/T518L)","ion current, inhibitor, two-electrode voltage clamp","Xenopus oocytes, GluN1 FA+TL/GluN3A",up to 30 µM,inhibition,no inhibition
CC(C)CC(NC(=O)OCc1ccccc1)C(=O)Nc1ccc(C2CC2N)cc1 (centres unmarked),MV4-11 AML cells,,,,IC50,16.9 ± 2.5 µM
CC[C@H](C)[C@H](NC(=O)[C@H](C)NC(=O)[C@H](CCC(=O)O)NC(=O)[C@H](Cc1c[nH]cn1)NC(=O)[C@@H](NC(=O)[C@H](CCCCN)NC(=O)[C@H](CCC(N)=O)NC(=O)[C@H](Cc1ccccc1)NC(=O)[C@@H](NC(=O)[C@H](CCCCN)NC(=O)[C@H](CCCCN)NC(=O)[C@H](CC(C)C)NC(=O)[C@H](C)NC(=O)[C@H](CC(N)=O)NC(=O)[C@@H](N)CC(C)C)C(C)C)[C@@H](C)CC)C(=O)N[C@@H](CCCCN)C(N)=O,Escherichia coli,broth microdilution,ATCC 25922,"18 h, 37 °C",MIC,4 µM
CC[C@H](C)[C@H](NC(=O)[C@H](Cc1ccc(O)cc1)NC(=O)[C@@H]1CCCN1C(=O)[C@H](CCCNC(=N)N)NC(=O)[C@H](CCCNC(=N)N)NC(=O)[C@@H]1CCCN1C(=O)[C@H](CCCCN)NC(=O)[C@H](CC(N)=O)NC(=O)[C@H](CCC(=O)O)NC(=O)[C@H](Cc1ccc(O)cc1)NC(=O)[C@H](CC(C)C)NC(=O)[C@H](CCC(=O)O)NC(=O)CCOCCOCCOCCN=[N+]=[N-])C(=O)N[C@@H](CC(C)C)C(=O)O,TTR,binding,,,Kd,> 10 µM
NC1CC1c1ccc(NC(=O)C(Cc2ccc3ccccc3c2)NC(=O)OCc2ccccc2)cc1 (centres unmarked),MV4-11 AML cells,,,,IC50,15.4 ± 2.7 µM
CC(C)C[C@H](NC(=O)CNC(=O)[C@H](Cc1ccc(O)cc1)NC(=O)[C@H](CO)NC(=O)[C@H](Cc1c[nH]c2ccccc12)NC(=O)[C@H](Cc1c[nH]cn1)NC(=O)[C@H](CCC(=O)O)NC(=O)CCOCCOCCOCCN=[N+]=[N-])C(=O)N[C@@H](CCCNC(=N)N)C(=O)N1CCC[C@H]1C(=O)NCC(N)=O,TTR,binding,,,Kd,> 10 µM
CC(C)c1ccc(N(C)c2ccc3c(c2)OCC[C@H]3CNc2cnccc2C(=O)O)cc1,"Lysine-specific demethylase 4C (KDM4C, Homo sapiens, UniProt Q9H3R0)","H3K9me3 demethylation, inhibitor, TR-FRET",,enzyme preincubation,kon,4500 ± 167 M⁻¹ s⁻¹

# Excerpt of the above:
Compound,tested on,assay,system,conditions,quantity,result
CC[C@H](C)[C@H](NC(=O)[C@H](C)NC(=O)[C@H](CCC(=O)O)NC(=O)[C@H](Cc1c[nH]cn1)NC(=O)[C@@H](NC(=O)[C@H](CCCCN)NC(=O)[C@H](CCC(N)=O)NC(=O)[C@H](Cc1ccccc1)NC(=O)[C@@H](NC(=O)[C@H](CCCCN)NC(=O)[C@H](CCCCN)NC(=O)[C@H](CC(C)C)NC(=O)[C@H](C)NC(=O)[C@H](CC(N)=O)NC(=O)[C@@H](N)CC(C)C)C(C)C)[C@@H](C)CC)C(=O)N[C@@H](CCCCN)C(N)=O,Escherichia coli,broth microdilution,ATCC 25922,"18 h, 37 °C",MIC,4 µM
